Experimental data gathered from unrelated publications.
Every numbered part comes from another study and shows a few of its results, in no order. Changes are numbered by the printed parent chain.

Sample 1
Target: TATA-box-binding protein 1 (TBP1, Arabidopsis thaliana, UniProt P28147, residues 1-200, full length assumed)
Technique: protein-binding microarray
Molecule type: double-stranded DNA, one strand shown
Matrix: in vitro
Concentration: not given
Setting: k-mer, scored over probes, only values ≥0.25
Reading: higher = stronger binding
Measurement: E-score
Construct (chain): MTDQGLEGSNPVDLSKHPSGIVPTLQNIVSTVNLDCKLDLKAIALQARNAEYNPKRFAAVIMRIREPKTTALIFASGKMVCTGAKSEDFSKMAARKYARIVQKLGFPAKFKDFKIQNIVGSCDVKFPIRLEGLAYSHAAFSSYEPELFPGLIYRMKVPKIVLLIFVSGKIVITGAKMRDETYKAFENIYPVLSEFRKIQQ
CTAAATA: 0.322
ATATACA: 0.416
ACCTTAT: 0.287
CGATAAA: 0.302
GTTATAA: 0.449
TGTAAAA: 0.264
GATATTA: 0.373
AATATCC: 0.292
ATCTAAA: 0.258
AATATAA: 0.472
GCCTTAA: 0.266
AGCTTAA: 0.268
AAAACGT: 0.271
CCATTAA: 0.261
GATTTTA: 0.258
ACCATAT: 0.326
TAAATGA: 0.365
TATTTAA: 0.479
AAGTATA: 0.375
GAAATAC: 0.281
ATAAAGG: 0.429
GTATTTA: 0.449
TGATTAA: 0.351
TTTAAAA: 0.449
TATAAAA: 0.475

Sample 2
Target: Histone acetyltransferase KAT6A, winged helix 2, GST fusion (KAT6A, Homo sapiens, UniProt Q92794, residues 85-181)
Technique: protein binding microarray
Molecule type: double-stranded DNA, one strand shown
Matrix: in vitro
Concentration: not given
Setting: 8-mer, flanks averaged, mean of 2 arrays, mostly near background
Relative to: not given
Reading: higher = stronger binding
Measurement: E-score
Residues (chain): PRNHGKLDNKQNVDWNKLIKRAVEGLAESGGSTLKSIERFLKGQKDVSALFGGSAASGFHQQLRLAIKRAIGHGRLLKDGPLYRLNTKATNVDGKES
TATTTGCA: -0.0382
CTTAGAGC: 0.126
GAGAGCGC: -0.0247
AATGAGCC: -0.0657
ACCGCAGC: 0.0918
CGCCATGC: 0.204
AAACTTCG: -0.0037
AGCCAGCT: 0.0403
GCGCGTAC: 0.0754
ATGACGTG: -0.193
AACTCCCA: -0.0793
GGTCCTAA: -0.0409
AGGGTTGA: -0.0928
AGGCACGG: 0.0288
ACACTATC: 0.00265
ACTTATTG: -0.277
GAAGAGAA: 0.115
CCGGTGGA: -0.0128
CCGGGAGC: 0.11

Sample 3
Target: RNA binding protein fox-1 homolog 2, RRM domain, GST-SBP tag (RBFOX2, Homo sapiens, UniProt O43251-10, residues 100-194)
Technique: RNA Bind-n-Seq
Molecule type: RNA
Matrix: in vitro
Concentration: 365 nM
Setting: natural RNA segment, single round, ends assumed
Relative to: no-protein control
Reading: higher = stronger binding
Measurement: RBNS enrichment (R)
Constant ends, left off below: GGGAGUUCUACAGUCCGACGAUC … UGGAAUUCUCGGGUGCCAA
Construct (chain): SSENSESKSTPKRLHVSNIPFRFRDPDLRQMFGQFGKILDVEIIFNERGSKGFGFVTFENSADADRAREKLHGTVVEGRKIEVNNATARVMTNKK
UCCAUAGGAAUAAGGCAUGCCCAGCUAACAGAAAUUUAAGUCCCUCUUCCCCACCUCUCUCAUCUAGACCAAAAAGAAGACUACAAUUUAGAUCCUUGGAGACUUUUCCU: 1.16
UCUGGGGAAGAAAAGUUAAUGAGGUUUUAAAAAUCAGGUCUUGUCGUGUGGGGAGCUUGCUCCCCCAGGGGAGAGGCCCCUUUACCUCAGUGGAUCCUGUUAAGGAGUGC: 0.279
CUCUAAAAAAAUAAAAACUUAGCAAGGCAUGGUGGUGCACACCUGUAGUCCUAGCUACUCAGGAGGCUGAGGUGGAGGAUCACUUAAGCCUGAGAGGUCAAGGUUGCAAU: 0.39
GAAGAUCUUUUUAUGCCACUGUUUCUGCUGUCUUGGUUCUGACACCCCUGUCUGGUGAUAUGCUAUACCCCAGUGCUGCCUACACGUGCUUUAGCUGUAGAGCUGGGUAU: 0.773
CACCAUAGACUUGAUCCCAUCCUUACAACCCAUCCUUCUAACUUGAUGUGUAUAAAAUAUGCAAACAUUUCACAAAUGUUCUUUGUCAUUUCAAAAUACUUUAGUAUAUC: 0.584
UGCUAUGAUACUGUUUAGCAUUUGCUCUGCUGCCUAUCUUUCUCUGUUUUUAAUUAACAAUUGGAUUUUAUUGGAAGAAGAAAAAGCAGUUUCAUUAUUUUGGAUGAUGA: 0.398
CUACAGCUAUUUGAGUCCCUAGACCUUAUUUGAUCAUAUUCAAAAGAUCAUUUCCCAUGCUUGCUUUGAUUUGGUCCUCAAUAAAUUAAAAUGAUCCACACUUUCACACU: 1.98
CACAGAUGGUCGCUGCAAGCAGAUCCCUCUGAGCCUCUCUUCUGCUAGUGCCUGGCUUGCCACAUGGAAAGCAAGCACAAGGGAGCAGUAUUCCGUAGCAUAUGAUAGCA: 0.976
CAGAUCUCAGUGGGUCACAUAACUUGCUUUACACUCAUCUUGUUGUGUCAGAAAUAAAGUGUUCGUGCUUUUCCUUGUCAGGAGUCCCGUGUUUGUCACUUGUUGUGUGG: 0.812
UUUUCAUAGACAGACGAGGCAACUGCAUAUAGGUUUUGUCUUUAAAACCACCUUUAAUCUAGAUACAUAGACUAACAGUGGAUUUUUUUUAACCCUUUAUCUUUCUGCCC: 0.256
CUUCCUGGUUCUGAUCAAAACCAGACCAAACCCUCAUUUCAGCAAAGCCUUGCAAGACACUCCCUUGCUCAUUUGCCAUAUUUAGAUGUCUUAGUGGAGUCAGAGCCCUG: 0.291
GGCUCUAUCUCAGAGGUGCUGCUCUUGCAGGUGACCUGGUUGCAUAGCUAGGAUUAGUAAUUUGUACUGCUUUCUGGUCAUUUGAAGAGCCCUUUAGUUUUGAUGAUAUU: 0.406

Sample 4
Target: Centromere-binding protein 1, full length, His-tagged (CBF1, Saccharomyces cerevisiae, UniProt P17106, residues 1-351)
UniProt P17106, sequence (whole entry, looked up): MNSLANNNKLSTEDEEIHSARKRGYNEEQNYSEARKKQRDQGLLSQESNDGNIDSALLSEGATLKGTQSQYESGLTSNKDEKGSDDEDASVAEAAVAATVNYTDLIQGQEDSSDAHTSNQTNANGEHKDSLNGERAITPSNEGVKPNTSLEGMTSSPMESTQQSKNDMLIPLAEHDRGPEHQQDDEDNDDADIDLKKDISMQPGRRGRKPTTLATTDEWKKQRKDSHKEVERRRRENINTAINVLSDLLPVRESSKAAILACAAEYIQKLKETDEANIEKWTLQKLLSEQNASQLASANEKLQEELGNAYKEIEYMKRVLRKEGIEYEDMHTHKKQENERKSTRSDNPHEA
Technique: competition protein-binding microarray
Molecule type: double-stranded DNA, one strand shown
Matrix: in vitro
Concentration: 2 µM
Setting: whole 60-bp probe, lowest competitor level
With: Pho4 competitor, 0.05 µM
Reading: higher = stronger binding
Measurement: fluorescence intensity
Constant ends, left off below: … GTCTTGATTCGCTTGACGCTGCTG
TATAATATCCGTTCGCATGTGAGTTGGCGACCTTTG: 91.5 a.u.
TTTTTCCCTAGAAAAATCGTGCTAACAGGTATATCA: 84.6 a.u.
TAATGTCAATATTCACACGTCGTTATAAGCAGCTAA: 91 a.u.
CTCGAATCGAAAACAAACGTGGCCGTTGGTCCATCA: 77.3 a.u.
AAGTGCCGGAGGCTCAGCGTGACGGTGCAGATAGGT: 84.9 a.u.
GATCCCGCTCCTTGGCGTGTTCATTCTGTTACGATC: 73.8 a.u.
ATAAAGTGCGTAATGTGCGTGCTAAAAAAGCTCACT: 104 a.u.
CGTCCTAGTGATTGTGAGGTGGGTGCCATGAGGAAG: 80.5 a.u.
GTCTTGTCTCATTACCACGTGTTTTTCCCCACTTCA: 1400 a.u.
CATACCCAACCTTGGTAAGTGGGTGAAGATATTTGT: 64.7 a.u.
AGTCTTGTCTGAAACCATGTGGGACACCAAGAAGGA: 78.5 a.u.
GTTGTTCCATGCTCAGTTGTGATATTGAATGCCCTC: 76.2 a.u.
TTGCATATTGTTACCCACGGCTTCTAGCAACATGGA: 59 a.u.
TAAATGGTCTCTTAATGCGTGCCGAATTTTCGTAAT: 84.9 a.u.
TGCGCAACAACTTGGACGGTGGGTGTATGTCTAGAA: 54.1 a.u.
TACATTGCTGTATTGCACGGCCCTTGCGGGTATGGC: 62.5 a.u.
AAAGCGGTAATTTACCACGTGTTTTCACATATCTAT: 1810 a.u.

Sample 5
Target: CCND3, cyclin fold, Cln2 fusion (human)
Technique: yeast growth competition, sequencing
Matrix: yeast
Setting: weak parent motif
Relative to: not given
Reading: higher = stronger binding
Measurement: normalised enrichment score
Starting sequence: RBL2 docking peptide (human); STTRRRLFVENDS
STTRRRLFVENDM [S13M]: 0.112
SITRRRLFVENDS [T2I]: 0.0254
STTRRRLFVCNDS [E10C]: 0.112
STTRRRDFVENDS [L7D]: 0.168
STTRRRLFDENDS [V9D]: 0.0433
STTRRRLFVENYS [D12Y]: 0.177
YTTRRRLFVENDS [S1Y]: 0.14
STTRRRLVVENDS [F8V]: 0.15
FTTRRRLFVENDS [S1F]: 0.0572
STTRRFLFVENDS [R6F]: 0.072
STTRRRLFVENDN [S13N]: 0.0199
STYRRRLFVENDS [T3Y]: 0.225
STTRRRLFGENDS [V9G]: 0.0424
STTRRRLTVENDS [F8T]: 0.182
STTRRRCFVENDS [L7C]: 0.0839
STTRRRLFVEWDS [N11W]: 0.136
STTRRRWFVENDS [L7W]: 0.103
STTRRWLFVENDS [R6W]: 0.091
STTRRRLFVENFS [D12F]: 0.0884
STTQRRLFVENDS [R4Q]: 0.108
STTARRLFVENDS [R4A]: 0.186
STTRRRLFVENES [D12E]: 0.0452
STARRRLFVENDS [T3A]: 0.108
STSRRRLFVENDS [T3S]: 0.098
STTRRRLFLENDS [V9L]: 0.0653
